Assay results of several laboratories.
Each numbered part is a random draw from the data of one study; scales do not carry over between parts. “And” joins repeats or separate records; there may be more than shown.
UniProt P08922, sequence (whole entry, looked up): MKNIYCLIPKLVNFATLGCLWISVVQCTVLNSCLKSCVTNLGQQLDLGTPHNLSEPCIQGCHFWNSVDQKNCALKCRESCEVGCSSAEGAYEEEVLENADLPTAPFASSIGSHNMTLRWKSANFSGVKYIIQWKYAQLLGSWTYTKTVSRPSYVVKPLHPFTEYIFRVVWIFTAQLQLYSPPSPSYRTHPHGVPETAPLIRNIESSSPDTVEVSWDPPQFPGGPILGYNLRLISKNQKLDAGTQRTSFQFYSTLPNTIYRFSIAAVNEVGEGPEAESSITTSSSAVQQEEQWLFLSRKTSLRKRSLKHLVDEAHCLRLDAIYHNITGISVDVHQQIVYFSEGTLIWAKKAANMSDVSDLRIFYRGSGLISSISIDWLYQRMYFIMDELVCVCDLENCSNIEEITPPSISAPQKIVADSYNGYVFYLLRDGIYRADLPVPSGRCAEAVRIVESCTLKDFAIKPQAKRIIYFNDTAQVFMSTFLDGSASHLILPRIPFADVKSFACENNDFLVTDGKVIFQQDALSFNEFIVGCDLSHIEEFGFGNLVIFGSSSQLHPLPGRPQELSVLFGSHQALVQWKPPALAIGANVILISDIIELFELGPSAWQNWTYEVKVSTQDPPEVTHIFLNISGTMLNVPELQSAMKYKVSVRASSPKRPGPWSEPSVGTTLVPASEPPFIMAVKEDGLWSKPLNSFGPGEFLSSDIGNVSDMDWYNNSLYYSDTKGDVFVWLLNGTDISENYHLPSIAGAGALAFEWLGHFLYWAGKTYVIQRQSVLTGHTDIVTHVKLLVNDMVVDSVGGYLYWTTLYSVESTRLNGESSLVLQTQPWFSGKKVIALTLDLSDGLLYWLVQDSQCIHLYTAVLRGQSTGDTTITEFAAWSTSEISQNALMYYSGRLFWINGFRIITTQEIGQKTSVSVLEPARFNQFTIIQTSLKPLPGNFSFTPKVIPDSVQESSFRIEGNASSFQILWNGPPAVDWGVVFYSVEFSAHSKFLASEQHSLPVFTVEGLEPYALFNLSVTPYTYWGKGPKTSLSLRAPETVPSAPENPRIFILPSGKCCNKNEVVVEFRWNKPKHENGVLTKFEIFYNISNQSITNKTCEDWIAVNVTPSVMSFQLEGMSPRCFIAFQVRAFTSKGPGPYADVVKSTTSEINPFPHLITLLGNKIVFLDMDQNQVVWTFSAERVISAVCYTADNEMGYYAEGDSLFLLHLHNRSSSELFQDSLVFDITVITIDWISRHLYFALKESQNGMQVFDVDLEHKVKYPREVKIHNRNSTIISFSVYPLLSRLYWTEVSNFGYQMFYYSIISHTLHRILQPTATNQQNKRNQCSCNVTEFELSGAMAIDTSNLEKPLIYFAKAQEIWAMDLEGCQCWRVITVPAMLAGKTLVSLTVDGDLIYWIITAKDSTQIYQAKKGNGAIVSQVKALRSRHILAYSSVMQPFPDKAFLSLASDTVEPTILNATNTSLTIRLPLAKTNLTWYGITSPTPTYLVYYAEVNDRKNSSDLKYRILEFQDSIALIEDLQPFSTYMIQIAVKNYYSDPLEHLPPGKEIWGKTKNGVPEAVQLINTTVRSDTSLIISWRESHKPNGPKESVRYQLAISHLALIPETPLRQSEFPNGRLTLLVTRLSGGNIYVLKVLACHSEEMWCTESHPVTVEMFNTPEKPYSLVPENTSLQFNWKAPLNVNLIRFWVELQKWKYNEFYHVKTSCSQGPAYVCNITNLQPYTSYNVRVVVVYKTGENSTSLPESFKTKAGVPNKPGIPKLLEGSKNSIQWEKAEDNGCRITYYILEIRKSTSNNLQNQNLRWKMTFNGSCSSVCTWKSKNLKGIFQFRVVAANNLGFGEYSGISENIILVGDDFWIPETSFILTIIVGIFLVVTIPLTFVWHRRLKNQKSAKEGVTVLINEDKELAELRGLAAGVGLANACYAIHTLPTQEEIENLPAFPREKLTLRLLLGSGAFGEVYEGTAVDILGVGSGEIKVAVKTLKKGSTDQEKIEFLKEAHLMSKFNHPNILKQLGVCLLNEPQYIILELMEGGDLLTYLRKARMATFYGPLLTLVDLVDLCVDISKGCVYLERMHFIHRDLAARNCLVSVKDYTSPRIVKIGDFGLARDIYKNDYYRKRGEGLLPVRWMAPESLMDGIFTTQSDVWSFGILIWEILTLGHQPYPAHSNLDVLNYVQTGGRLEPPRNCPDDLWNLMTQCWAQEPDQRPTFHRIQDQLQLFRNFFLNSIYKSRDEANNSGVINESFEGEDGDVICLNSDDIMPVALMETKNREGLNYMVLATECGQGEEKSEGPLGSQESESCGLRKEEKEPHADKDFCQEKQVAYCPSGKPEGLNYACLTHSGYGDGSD
UniProt P0C1S8, sequence (whole entry, looked up): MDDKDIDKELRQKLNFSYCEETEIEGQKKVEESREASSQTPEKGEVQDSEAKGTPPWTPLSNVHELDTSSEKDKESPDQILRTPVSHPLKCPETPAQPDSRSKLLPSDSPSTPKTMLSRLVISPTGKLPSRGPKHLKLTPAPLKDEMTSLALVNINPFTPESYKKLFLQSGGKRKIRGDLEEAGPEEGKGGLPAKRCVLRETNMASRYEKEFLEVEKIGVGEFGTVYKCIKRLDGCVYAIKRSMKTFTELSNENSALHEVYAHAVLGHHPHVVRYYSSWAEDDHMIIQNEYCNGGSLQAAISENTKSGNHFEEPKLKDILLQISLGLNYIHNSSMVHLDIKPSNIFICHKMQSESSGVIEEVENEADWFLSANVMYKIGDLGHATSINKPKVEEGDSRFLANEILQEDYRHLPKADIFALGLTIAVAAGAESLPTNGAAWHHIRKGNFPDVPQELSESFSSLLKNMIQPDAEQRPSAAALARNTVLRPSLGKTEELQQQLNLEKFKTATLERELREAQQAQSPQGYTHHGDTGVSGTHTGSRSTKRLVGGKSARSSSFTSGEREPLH
UniProt Q14004, sequence (whole entry, looked up): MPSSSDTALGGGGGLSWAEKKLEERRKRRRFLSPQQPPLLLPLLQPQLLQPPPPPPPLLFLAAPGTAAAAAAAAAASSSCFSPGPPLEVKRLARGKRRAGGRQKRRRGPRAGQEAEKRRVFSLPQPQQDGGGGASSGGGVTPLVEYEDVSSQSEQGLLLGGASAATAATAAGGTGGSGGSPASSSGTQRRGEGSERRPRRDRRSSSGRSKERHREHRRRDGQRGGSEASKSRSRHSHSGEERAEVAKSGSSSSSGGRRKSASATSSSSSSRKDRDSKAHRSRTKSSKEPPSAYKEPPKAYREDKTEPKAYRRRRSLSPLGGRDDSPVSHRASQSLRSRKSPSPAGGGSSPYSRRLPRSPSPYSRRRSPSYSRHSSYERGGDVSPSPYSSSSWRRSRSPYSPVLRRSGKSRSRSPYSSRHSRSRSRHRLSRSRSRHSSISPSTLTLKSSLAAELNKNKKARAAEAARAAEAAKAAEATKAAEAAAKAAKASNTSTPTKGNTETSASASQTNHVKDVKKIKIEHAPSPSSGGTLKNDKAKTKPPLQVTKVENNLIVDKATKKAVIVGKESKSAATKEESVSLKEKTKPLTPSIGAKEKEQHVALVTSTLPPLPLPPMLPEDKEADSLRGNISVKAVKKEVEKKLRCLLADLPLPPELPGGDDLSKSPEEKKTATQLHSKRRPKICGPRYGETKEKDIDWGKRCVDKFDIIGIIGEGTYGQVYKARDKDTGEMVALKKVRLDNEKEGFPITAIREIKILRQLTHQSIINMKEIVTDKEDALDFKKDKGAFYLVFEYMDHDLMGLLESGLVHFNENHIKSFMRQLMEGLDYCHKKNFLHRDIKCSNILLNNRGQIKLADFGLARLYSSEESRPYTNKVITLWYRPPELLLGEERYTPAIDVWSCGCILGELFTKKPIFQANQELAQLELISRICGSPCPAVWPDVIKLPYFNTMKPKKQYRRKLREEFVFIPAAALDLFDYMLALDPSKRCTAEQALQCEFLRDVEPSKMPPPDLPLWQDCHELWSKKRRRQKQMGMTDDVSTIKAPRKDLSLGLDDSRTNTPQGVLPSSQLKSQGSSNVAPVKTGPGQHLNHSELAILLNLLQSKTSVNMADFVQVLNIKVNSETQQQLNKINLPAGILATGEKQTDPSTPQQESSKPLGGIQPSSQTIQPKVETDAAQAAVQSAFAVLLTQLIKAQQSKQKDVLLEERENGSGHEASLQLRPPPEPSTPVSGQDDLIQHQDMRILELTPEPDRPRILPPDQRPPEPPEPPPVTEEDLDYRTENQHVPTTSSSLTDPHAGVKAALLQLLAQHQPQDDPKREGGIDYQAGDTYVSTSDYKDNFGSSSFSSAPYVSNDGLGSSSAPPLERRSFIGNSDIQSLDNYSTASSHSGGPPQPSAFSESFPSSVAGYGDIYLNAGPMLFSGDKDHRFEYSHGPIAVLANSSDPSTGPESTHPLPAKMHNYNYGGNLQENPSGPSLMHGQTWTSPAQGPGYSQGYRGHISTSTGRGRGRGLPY
UniProt Q13153, sequence (whole entry, looked up): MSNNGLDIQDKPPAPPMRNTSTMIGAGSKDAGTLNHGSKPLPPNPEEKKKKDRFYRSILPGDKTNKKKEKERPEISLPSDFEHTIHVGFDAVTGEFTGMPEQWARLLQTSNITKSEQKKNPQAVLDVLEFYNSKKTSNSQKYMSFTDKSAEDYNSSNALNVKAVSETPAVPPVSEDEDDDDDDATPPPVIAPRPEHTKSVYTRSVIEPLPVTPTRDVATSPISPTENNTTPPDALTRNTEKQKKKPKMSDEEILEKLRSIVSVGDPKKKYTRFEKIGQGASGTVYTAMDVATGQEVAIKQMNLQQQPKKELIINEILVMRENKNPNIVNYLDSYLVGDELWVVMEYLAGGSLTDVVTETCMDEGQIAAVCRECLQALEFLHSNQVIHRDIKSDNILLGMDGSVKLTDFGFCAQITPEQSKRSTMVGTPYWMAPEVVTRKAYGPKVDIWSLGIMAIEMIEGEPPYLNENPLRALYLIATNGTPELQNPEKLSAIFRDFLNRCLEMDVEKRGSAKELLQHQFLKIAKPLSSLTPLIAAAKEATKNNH

Study 1
Cell line: A-375
Tested at: 100 µM
Time: 36 h
SMILES	viability
CCn1cc(C(=O)O)c(=O)c2cnc(N3CCNCC3)nc21	129%
O=C(O)CCCN1CCC(O[C@@H](c2ccc(Cl)cc2)c2ccccn2)CC1	103%
O=C(OC1C[C@@H]2CC3C[C@H](C1)N2CC3=O)c1c[nH]c2ccccc12 (stereo partly shown)	96.5%
O=C(Oc1ccccc1C(=O)O)c1ccccc1O	116%
CCN(CC)CCNC(C(=O)OCCC(C)C)c1ccccc1 (stereo not shown)	87%
C[C@]12C=CC(=O)N[C@@H]1CC[C@@H]1[C@@H]2CC[C@]2(C)[C@@H](C(=O)Nc3cc(C(F)(F)F)ccc3C(F)(F)F)CC[C@@H]12	61.5%
CCN(CC)CCc1nc(-c2ccccc2)no1	24.8%
COc1ccc(C[C@@H]2c3cc(OC)c(OC)cc3CC[N@+]2(C)CCC(=O)OCCCCCOC(=O)CC[N@@+]2(C)CCc3cc(OC)c(OC)cc3[C@H]2Cc2ccc(OC)c(OC)c2)cc1OC	43.4%
O=C(O)c1ccc(O)c(O)c1	114%

Study 2
Compound: CC(=O)N[C@@H](Cc1c[nH]c2ccccc12)C(=O)N[C@@H](CCC(=O)C=[N+]=[N-])C(=O)OC(C)C
Host: C57BL/6 CES1-/- mice, EL4 tumour
Route: subcutaneous
Dose: 0.3 mg/kg/day DON equivalent
Time: 5 days
Notes: normalised to tissue mass
assay	test system	scale	metabolite peak intensity
UPLC-MS/MS, refers to: indolepropionate	EL4, tumour	higher = more metabolite	452000 a.u. and 563000 a.u. and 1.25e+06 a.u. and 853000 a.u. and 308000 a.u. and 741000 a.u.
UPLC-MS/MS, refers to: malate	EL4, tumour	higher = more metabolite	3.18e+09 a.u. and 5.08e+09 a.u. and 3.97e+09 a.u. and 2.69e+09 a.u. and 3.02e+09 a.u. and 4.03e+09 a.u.
UPLC-MS/MS metabolomics, refers to: N-acetylasparagine	EL4 tumour	higher = more metabolite	1.59e+06 a.u. and 1.74e+06 a.u. and 1.98e+06 a.u. and 1.5e+06 a.u. and 969000 a.u. and 1.33e+06 a.u.
UPLC-MS/MS metabolomics, refers to: glutamate gamma-methyl ester	EL4 tumour	–	1.72e+07 a.u. and 2.8e+07 a.u. and 1.81e+07 a.u. and 2.15e+07 a.u. and 2.07e+07 a.u. and 3.49e+07 a.u.
UPLC-MS/MS metabolomics, refers to: gamma-glutamyl-epsilon-lysine	EL4 tumour	–	8.64e+06 a.u. and 9.01e+06 a.u. and 5.12e+06 a.u. and 6.7e+06 a.u. and 2.38e+06 a.u. and 1.11e+07 a.u.
UPLC-MS/MS metabolomics, refers to: N-acetylglycine	EL4 tumour	higher = more metabolite	2.84e+06 a.u. and 3.12e+06 a.u. and 2.94e+06 a.u. and 2.8e+06 a.u. and 1.34e+06 a.u. and 2.06e+06 a.u.

Study 3
Cell line: normal-adjacent organoid sample E
Method: CellTiter-Glo
Tested at: 1 µM
Notes: replicate mean
Relative to: DMSO
SMILES	viability [%]
CC(=O)N1CCC(c2ccc(C(=O)NC3=NCCN3)cc2C(F)(F)F)CC1	89.4
C[C@@H](c1cccc(C#N)c1)n1cc(Cl)cc(C(N)=O)c1=N	122
O=C(NNS(=O)(=O)c1ccccc1F)c1cc(F)cc(-c2ccccn2)c1	95.9
CN1CCN(Cc2ccc(Nc3ncc(Cl)c(Nc4ccccc4S(=O)(=O)N(C)C)n3)cc2)CC1	7.2
CNC(=O)c1cc(C(=O)N[C@H]2[C@@H]3COC[C@@H]32)cc2c1O[C@H](CF)[C@H]2c1ccccc1	90.6
CN1CCN(C(=O)C(C)(C)c2ccc(C(=O)Nc3cn4cc(-c5cc(C(C)(C)C)cc(C(C)(C)C)c5)ccc4n3)cc2)CC1	132
COc1cc(-c2cn(C3CCc4c(F)cccc4N(CC(F)(F)F)C3=O)nn2)ccc1-n1cnc(C)c1 (stereo not shown)	122
CCC(=O)N[C@@H]1CC[C@H](C(=O)N(C)c2ccc(-c3nc4ccccc4o3)cc2)C1	84.6
CN(C)[C@@H]1CCN(c2cc(-c3ccccc3)nc3ccnn23)C1	110
Cc1nc(C2CCN(C(=O)c3ccc(OC(F)(F)F)cc3N)CC2)c2ncc(N3CCN(C)CC3)cc2n1	114
CN(c1ccnc(CNc2nc(Nc3ccc4c(c3)CC(=O)N4)ncc2C(F)(F)F)n1)S(C)(=O)=O	117

Study 4
Compound: Cc1ccc(NC(=O)c2ccnc(C(F)(F)F)c2)cc1-c1cc(OCCO)nc(N2CCOCC2)c1
Effect on: binding
Tested at: 1 µM
target	assay	remaining binding
SNF-related serine/threonine-protein kinase (SNRK, Homo sapiens, UniProt Q9NRH2)	–	100%
Proto-oncogene tyrosine-protein kinase ROS (ROS1, Homo sapiens, UniProt P08922)	–	77%
Cyclin-dependent kinase 13 (CDK13, Homo sapiens, UniProt Q14004)	–	77%
Serine/threonine-protein kinase PAK 1 (PAK1, Homo sapiens, UniProt Q13153)	–	85%
Wee1-like protein kinase 2 (WEE2, Homo sapiens, UniProt P0C1S8)	competition with immobilised ligand	100%
Ribosomal protein S6 kinase alpha-5, C-terminal kinase domain (RPS6KA5, Homo sapiens, UniProt O75582)	competition with immobilised ligand	100%
Death-associated protein kinase 1 (DAPK1, Homo sapiens, UniProt P53355)	–	74%
cAMP-dependent protein kinase catalytic subunit beta (PRKACB, Homo sapiens, UniProt P22694)	competition with immobilised ligand	100%

Repeated from above (study 3):
SMILES	viability [%]
COc1cc(-c2cn(C3CCc4c(F)cccc4N(CC(F)(F)F)C3=O)nn2)ccc1-n1cnc(C)c1 (stereo not shown)	122
O=C(NNS(=O)(=O)c1ccccc1F)c1cc(F)cc(-c2ccccn2)c1	95.9
CN(C)[C@@H]1CCN(c2cc(-c3ccccc3)nc3ccnn23)C1	110
C[C@@H](c1cccc(C#N)c1)n1cc(Cl)cc(C(N)=O)c1=N	122
